# Measurements from different studies.
# Protocols differ between the studies behind these lines. Numbers after ± are the reported error.
# CHRM4: Muscarinic acetylcholine receptor M4 (CHRM4, Homo sapiens, UniProt P08173)
# Sequence of UniProt P08173 (whole entry, looked up): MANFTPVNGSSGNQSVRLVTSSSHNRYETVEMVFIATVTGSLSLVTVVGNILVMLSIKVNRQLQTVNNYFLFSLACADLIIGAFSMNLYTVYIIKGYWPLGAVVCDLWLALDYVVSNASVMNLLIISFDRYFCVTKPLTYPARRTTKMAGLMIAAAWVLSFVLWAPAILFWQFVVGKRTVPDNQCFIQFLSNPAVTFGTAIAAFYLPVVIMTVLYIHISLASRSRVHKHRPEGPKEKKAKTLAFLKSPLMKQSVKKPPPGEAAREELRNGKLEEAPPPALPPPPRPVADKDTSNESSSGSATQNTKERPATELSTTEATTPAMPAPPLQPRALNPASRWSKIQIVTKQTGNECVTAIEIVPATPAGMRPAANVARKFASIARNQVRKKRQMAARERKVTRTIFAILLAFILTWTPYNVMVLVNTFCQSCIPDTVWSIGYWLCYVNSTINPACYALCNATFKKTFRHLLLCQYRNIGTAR
# ALK tyrosine kinase receptor/Echinoderm microtubule-associated protein-like 4: ALK tyrosine kinase receptor/Echinoderm microtubule-associated protein-like 4 (Homo sapiens, UniProt Q9HC35+Q9UM73)
# Sequence of UniProt Q9UM73 (whole entry, looked up): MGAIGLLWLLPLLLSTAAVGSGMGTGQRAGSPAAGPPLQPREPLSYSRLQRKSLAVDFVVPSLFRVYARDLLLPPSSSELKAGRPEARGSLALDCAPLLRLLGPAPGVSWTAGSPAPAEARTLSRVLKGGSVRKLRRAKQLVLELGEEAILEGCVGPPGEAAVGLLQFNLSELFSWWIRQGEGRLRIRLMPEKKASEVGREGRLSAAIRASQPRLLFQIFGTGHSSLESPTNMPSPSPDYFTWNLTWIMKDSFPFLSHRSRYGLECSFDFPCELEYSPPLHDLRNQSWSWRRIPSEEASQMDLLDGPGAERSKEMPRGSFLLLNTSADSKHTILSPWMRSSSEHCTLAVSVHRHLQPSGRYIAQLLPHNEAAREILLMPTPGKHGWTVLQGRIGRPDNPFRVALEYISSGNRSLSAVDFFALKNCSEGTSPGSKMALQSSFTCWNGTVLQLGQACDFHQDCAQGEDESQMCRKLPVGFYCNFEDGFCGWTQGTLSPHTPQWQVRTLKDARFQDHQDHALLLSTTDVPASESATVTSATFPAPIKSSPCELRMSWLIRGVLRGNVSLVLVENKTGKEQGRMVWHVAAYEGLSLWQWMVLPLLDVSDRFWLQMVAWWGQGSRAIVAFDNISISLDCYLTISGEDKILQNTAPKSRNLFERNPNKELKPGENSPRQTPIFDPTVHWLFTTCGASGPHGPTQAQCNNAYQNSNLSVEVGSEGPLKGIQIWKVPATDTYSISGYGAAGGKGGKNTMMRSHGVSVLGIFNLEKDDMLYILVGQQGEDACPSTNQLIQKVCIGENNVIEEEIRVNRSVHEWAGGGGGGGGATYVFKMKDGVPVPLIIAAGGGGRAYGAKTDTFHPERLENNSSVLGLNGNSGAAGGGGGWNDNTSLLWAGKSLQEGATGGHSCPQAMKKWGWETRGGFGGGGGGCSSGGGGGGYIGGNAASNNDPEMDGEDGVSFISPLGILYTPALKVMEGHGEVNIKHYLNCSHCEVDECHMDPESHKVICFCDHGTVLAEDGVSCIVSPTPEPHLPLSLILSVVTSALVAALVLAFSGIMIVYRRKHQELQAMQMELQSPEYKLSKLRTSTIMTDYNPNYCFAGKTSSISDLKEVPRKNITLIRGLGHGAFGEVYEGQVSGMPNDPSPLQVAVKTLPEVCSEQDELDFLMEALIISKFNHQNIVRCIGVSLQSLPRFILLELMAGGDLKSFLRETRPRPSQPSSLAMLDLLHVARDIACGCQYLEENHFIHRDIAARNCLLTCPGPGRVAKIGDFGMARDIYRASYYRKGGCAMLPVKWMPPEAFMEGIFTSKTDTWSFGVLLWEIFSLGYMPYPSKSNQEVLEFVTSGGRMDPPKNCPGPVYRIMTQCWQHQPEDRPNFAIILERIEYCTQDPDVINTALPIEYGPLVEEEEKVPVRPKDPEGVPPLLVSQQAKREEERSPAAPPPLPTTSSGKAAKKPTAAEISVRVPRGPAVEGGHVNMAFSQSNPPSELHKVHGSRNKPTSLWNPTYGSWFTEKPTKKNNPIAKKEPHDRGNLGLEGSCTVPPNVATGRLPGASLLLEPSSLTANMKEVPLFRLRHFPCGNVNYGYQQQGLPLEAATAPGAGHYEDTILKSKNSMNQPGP
# Sequence of UniProt P25090 (whole entry, looked up): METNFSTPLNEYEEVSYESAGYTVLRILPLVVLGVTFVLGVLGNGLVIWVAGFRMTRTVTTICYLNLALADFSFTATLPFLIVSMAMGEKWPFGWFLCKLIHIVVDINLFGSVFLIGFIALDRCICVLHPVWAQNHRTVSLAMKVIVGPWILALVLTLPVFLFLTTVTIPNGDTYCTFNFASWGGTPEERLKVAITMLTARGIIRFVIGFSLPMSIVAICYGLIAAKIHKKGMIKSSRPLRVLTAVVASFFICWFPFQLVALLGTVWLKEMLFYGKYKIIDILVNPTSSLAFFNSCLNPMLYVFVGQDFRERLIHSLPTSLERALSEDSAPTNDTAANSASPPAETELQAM
# Sequence of UniProt Q9HC35 (whole entry, looked up): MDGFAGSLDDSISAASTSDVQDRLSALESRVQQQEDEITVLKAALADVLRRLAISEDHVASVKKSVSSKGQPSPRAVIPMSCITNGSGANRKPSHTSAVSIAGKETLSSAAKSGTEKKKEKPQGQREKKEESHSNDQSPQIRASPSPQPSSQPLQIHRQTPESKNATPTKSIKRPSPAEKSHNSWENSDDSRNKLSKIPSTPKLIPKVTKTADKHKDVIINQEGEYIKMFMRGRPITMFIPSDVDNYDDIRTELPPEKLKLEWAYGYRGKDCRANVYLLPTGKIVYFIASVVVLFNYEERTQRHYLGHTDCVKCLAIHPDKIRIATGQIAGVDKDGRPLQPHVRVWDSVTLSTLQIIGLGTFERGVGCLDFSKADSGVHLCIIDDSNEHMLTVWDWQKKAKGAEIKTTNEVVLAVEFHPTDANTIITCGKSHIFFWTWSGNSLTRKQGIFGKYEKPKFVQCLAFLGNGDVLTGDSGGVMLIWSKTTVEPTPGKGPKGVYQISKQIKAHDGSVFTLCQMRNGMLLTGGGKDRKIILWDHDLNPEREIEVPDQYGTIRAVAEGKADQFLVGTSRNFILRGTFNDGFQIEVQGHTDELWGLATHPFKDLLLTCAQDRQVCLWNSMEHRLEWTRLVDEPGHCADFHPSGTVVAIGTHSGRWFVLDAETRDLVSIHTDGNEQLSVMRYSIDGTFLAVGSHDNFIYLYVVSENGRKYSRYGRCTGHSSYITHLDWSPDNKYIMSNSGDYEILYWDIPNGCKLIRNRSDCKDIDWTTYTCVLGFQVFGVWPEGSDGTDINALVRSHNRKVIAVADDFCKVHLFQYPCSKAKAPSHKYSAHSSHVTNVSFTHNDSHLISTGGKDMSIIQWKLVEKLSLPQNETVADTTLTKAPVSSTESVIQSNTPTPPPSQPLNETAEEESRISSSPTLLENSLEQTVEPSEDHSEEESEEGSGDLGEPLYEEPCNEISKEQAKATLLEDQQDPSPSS
# Sequence of UniProt Q99500 (whole entry, looked up): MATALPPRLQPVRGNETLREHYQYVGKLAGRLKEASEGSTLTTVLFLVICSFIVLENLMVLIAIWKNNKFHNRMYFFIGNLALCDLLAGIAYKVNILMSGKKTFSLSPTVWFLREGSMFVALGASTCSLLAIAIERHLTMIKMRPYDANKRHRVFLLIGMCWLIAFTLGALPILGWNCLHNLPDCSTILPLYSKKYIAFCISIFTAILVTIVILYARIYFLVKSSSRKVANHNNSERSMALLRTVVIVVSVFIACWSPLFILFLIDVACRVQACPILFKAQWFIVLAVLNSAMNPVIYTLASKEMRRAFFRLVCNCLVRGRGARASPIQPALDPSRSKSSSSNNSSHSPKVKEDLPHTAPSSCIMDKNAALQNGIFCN
# Sequence of UniProt Q92835 (whole entry, looked up): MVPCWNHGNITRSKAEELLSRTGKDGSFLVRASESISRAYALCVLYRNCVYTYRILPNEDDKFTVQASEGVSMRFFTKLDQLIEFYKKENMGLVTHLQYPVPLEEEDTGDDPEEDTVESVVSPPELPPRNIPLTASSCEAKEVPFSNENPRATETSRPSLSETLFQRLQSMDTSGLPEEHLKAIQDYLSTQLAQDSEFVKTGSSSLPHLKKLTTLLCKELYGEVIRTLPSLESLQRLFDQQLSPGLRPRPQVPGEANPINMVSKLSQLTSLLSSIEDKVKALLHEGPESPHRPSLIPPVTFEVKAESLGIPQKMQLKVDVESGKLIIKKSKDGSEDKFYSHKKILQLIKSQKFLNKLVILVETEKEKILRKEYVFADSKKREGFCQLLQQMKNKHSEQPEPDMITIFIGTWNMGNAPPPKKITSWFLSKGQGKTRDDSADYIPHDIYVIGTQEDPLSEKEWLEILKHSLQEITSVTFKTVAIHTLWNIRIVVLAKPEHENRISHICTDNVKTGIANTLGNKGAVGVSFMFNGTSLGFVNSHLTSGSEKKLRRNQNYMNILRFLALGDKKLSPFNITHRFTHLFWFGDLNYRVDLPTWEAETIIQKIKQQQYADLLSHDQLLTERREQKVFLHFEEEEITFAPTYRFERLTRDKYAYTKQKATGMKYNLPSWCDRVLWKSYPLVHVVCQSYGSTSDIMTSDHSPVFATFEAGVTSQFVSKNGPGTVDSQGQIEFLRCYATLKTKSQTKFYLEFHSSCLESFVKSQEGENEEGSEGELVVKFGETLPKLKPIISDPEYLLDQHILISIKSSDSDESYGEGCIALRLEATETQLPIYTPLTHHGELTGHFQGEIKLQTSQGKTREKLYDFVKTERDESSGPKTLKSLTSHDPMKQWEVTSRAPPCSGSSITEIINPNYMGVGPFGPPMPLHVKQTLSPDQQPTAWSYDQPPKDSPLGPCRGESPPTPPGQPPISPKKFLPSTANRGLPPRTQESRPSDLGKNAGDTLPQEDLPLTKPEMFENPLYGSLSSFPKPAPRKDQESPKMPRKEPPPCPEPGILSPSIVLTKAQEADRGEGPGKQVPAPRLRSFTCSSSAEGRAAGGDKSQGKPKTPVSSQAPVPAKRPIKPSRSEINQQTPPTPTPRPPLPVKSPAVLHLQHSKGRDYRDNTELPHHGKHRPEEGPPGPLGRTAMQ
SMILES,target,test,test system,conditions,quantity,result
CCCCCCOc1ccc(C(=O)OCC[N+]2(C)CC=CCC2)cc1 (centres unmarked),CHRM4,"inositol phosphate accumulation, antagonist, Schild analysis",CHO co-expressing G15,together with: carbachol,Kb,138 nM
Cc1ccc(Oc2cc(C(=O)NCc3ccccn3)nc3ccsc23)cn1,"GRM5 (Homo sapiens, UniProt P41594)","calcium signal, agonist",,,EC50,> 30000 nM
CCc1nc(-c2ccc(-c3ccc(CCC(N)(CO)COP(=O)(O)O)cc3)cc2)co1 (centres unmarked),"S1PR1 (Homo sapiens, UniProt P21453)","β-arrestin recruitment, agonist",,,EC50,12.4 nM
CC[C@H]1CC[C@H]2[C@@H]3C[C@@H](O)[C@@]4(O)C[C@H](N)CC[C@]4(C)[C@H]3CC[C@]12C,"INPP5D (Homo sapiens, UniProt Q92835)",target engagement,HMC3 expressing HiBiT-INPP5D,"60 min, 37 °C",AC50,97000 ± 16000 nM
CC(C)COC(=O)c1ccc2c(c1)[C@H]1C=CC[C@H]1[C@@H](c1ccccc1)N2,"Pyruvate kinase PKM (PKM, Homo sapiens, UniProt P14618)","enzyme activity, activator, Kinase-Glo Plus",,"1 h, room temperature, together with: ADP 0.1 mM, PEP 0.5 mM",AC50,2380 nM
COc1cc(N2CCN(C(=O)CN)CC2)ccc1Nc1ncc(Cl)c(Nc2ccccc2P(C)(C)=O)n1,ALK tyrosine kinase receptor/Echinoderm microtubule-associated protein-like 4,degrader,,,DC50,142 nM
CCCCOc1ccc(C(=O)OCCN2CC=CCC2)cc1,CHRM4,"inositol phosphate accumulation, antagonist, Schild analysis",CHO co-expressing G15,together with: carbachol,Kb,77600 nM
CCCCCCCCCCCC(=O)Nc1ccccc1SSc1ccccc1NC(=O)CCCCCCCCCCC,"Albumin (ALB, Bos taurus, UniProt P02769)","binding, fluorescence quenching",,"pH 7.4, 298 K",Kd,1.7 nM
COc1cc(N2CCN(C(=O)CCOCCOCCOCCNC(=O)[C@@H]3CCCN3)CC2)ccc1Nc1ncc(Cl)c(Nc2ccccc2P(C)(C)=O)n1,ALK tyrosine kinase receptor/Echinoderm microtubule-associated protein-like 4,degrader,,,DC50,416 nM
CCc1nc(-c2ccc(-c3ccc(CCC(N)(CO)CO)cc3)cc2)co1,"S1PR3 (Homo sapiens, UniProt Q99500)","β-arrestin recruitment, agonist",,,EC50,4230 nM
CSCC[C@H](NC(=O)CNC(=O)[C@H](CCCCN)NC(=O)[C@@H](N)Cc1c[nH]c2ccccc12)C(=O)N[C@H](C(=O)N[C@H](CCSC)C(N)=O)C(C)C,"FPR2 (Homo sapiens, UniProt P25090)","binding, competitor",RBL,"4 °C, together with: 5 nM WK(FL)YMVm",EC50,176 nM

# Excerpt of the above:
SMILES,target,test,test system,conditions,quantity,result
CCc1nc(-c2ccc(-c3ccc(CCC(N)(CO)CO)cc3)cc2)co1,"S1PR3 (Homo sapiens, UniProt Q99500)","β-arrestin recruitment, agonist",,,EC50,4230 nM
